Experimental data of several laboratories.
Each numbered part is a random draw from the data of one study; scales do not carry over between parts.

Sample 1 — technique: protein binding microarray; form: double-stranded DNA, one strand shown; matrix: in vitro; concentration: not given; reference: not given; direction: higher = stronger binding; quantity: E-score
Target: Histone acetyltransferase KAT6A, winged helix 2, GST fusion (KAT6A, Homo sapiens, UniProt Q92794, residues 85-181)
Notes: 8-mer, flanks averaged, mean of 2 arrays, mostly near background
Residues (chain): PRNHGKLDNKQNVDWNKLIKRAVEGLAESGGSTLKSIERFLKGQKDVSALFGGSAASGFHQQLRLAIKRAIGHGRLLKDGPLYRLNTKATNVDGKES
CACTCACG: 0.0625
ACACCCGT: -0.0783
CGCAACCG: 0.305
CAAATAGC: -0.044
AAGGAGGT: -0.1
AATCTTTG: 8.5e-05

Sample 2 — technique: protein-binding microarray; form: double-stranded DNA, one strand shown; matrix: in vitro; concentration: 250 nM; notes: 60-bp whole probe; together with: salmon DNA 0.4 mg/ml; reference: random background probes; direction: higher = stronger binding; quantity: log fluorescence; shared flanks, not repeated: GCCTAGCAC … GTCTTGATTCGCTTGACGCTGCTG
Target: Interferon regulatory factor 5, full length, phosphomimetic (IRF5, Homo sapiens, UniProt Q13568-2, residues 1-514, K96S/S451D/S453D/S456D/S462D)
TTAGGTTTCCTTCTCCTTTTGTGCTAG: 1.31 z-score
GACGGACTGGTTCTCCTGACGTGCTAG: -0.724 z-score
TTAGGACTGCTACTGCTGTAGTGCTAG: -0.422 z-score
TTAGGTTTCGGGTATCGGTCAGTGCTA: 9.41 z-score
TTAGGTCTAGGTCTCGGTTAGTGCTAG: 0.0512 z-score

Sample 3 — technique: universal PBM; form: double-stranded DNA, one strand shown; matrix: in vitro; concentration: not given; direction: higher = stronger binding; quantity: E-score
Target: Sal-like protein 4, full length isoform B (SALL4, Homo sapiens, UniProt Q9UJQ4-2, residues 1-616)
Notes: 8-mer, flanks averaged, mean of replicates
Residues (chain): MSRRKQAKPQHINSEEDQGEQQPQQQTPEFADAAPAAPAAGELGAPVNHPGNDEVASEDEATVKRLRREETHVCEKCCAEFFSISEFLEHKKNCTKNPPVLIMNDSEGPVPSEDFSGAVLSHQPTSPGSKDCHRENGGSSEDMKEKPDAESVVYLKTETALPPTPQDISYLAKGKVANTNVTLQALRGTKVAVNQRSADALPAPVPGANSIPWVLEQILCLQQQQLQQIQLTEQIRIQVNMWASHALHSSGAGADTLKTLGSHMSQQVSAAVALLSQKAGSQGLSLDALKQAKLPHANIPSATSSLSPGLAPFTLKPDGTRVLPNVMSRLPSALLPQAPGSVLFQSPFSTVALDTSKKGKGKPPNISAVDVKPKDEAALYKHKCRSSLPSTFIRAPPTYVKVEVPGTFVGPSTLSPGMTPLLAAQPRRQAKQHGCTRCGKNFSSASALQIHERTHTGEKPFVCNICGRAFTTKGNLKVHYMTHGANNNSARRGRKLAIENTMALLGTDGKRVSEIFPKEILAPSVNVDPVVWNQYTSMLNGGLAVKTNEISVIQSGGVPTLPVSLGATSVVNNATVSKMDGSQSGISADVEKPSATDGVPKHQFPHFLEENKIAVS
AGGGTTCG: -0.206
ATGATGGC: -0.103
CCTCTTAA: 0.0646
ATCCAAAT: 0.294

Other studies, line by line
PhoQ, residues 284 288 289 292 302 303 TLASMF  fold induction (PhoP, residues 12 14 15 18 19 LHTVM (Escherichia coli, UniProt P23836); Sort-seq, measured: YFP reporter; E. coli; PhoQ-PhoP variant library, together with: 10 µM Mg2+; reference: high Mg2+ state, higher = stronger signaling): 1.27

For quick reference, copied from above (sample 3):
ATCCAAAT: 0.294
